Published values from different studies.
Numbers after ± are the reported error.
Target: Cytochrome P450 1A2 (CYP1A2, Homo sapiens, UniProt P05177)
Chain of UniProt P05177 (whole entry, looked up): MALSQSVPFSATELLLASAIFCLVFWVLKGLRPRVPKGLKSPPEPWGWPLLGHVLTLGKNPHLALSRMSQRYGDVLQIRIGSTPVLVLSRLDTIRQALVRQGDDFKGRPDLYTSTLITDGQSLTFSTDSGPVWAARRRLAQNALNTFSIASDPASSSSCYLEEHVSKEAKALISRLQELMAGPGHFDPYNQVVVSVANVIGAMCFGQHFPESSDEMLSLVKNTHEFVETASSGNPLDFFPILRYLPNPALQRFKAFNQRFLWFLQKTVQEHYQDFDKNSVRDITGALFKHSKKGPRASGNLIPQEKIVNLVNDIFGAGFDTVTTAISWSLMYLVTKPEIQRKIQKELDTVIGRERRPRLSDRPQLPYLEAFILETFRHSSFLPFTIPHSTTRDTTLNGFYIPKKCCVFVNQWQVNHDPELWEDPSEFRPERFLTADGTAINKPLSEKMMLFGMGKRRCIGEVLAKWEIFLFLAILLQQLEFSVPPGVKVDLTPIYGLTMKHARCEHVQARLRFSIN

| SMILES | test | test system | setting | IC50 [µM] |
| --- | --- | --- | --- | --- |
| COc1ccc2oc(-c3ccccc3)c(O)c(=O)c2c1 | enzyme activity, inhibitor, LC-MS/MS, measured: acetaminophen | human liver microsomes | 30 min, pH 7.4, added: phenacetin | 2.92 ± 0.36 |
| Cc1cc(O[C@@H]2CCOC2)cc(C(=O)Nc2ccc(F)cn2)n1 | inhibitor | – | – | > 30 |
| CC(C)=CCc1c(O)cc(O)c2c1O[C@H](c1ccc(O)cc1)CC2=O | inhibitor | – | pH 7.4 | 1.1 ± 0.2 |
| COc1ccc2oc(-c3ccccc3)c(OC)c(=O)c2c1 | enzyme activity, inhibitor, LC-MS/MS, measured: acetaminophen | human liver microsomes | 30 min, pH 7.4, added: phenacetin | 5.55 ± 0.46 |
| N#Cc1ccc(Nc2nc(N)cc(Oc3c(F)cc(-c4ccc(C#N)cc4)cc3F)n2)cc1 | – | human liver microsomes | added: phenacetin 20 µM | > 50 |
| Cc1nc(-c2cnc(NC(C)C)n(C)c2=O)ccc1Oc1ccnc(-c2cnn(C)c2)c1 | metabolism-dependent inhibition, inhibitor | – | 30 min preincubation with NADPH | > 100 |
| C=CCn1c(=O)c2cnc(Nc3ccc(N4CCN(C)CC4)cc3)nc2n1-c1ccc2c(n1)[C@@](O)(CC)CC2 | inhibitor | – | – | 50 |
| Cc1cccnc1C(=O)Nc1ccc(N2C(=O)c3cccc(Cl)c3C2=O)c(Cl)c1 | enzyme activity, inhibitor | – | – | > 30 |
| CCOC(=O)[C@@]12C[C@@H]1[C@@H](n1ccc3c(NC)nc(C#Cc4ccc(Cl)s4)nc31)[C@H](O)[C@@H]2O | enzyme activity, inhibitor | human liver microsomes | 10 min, pH 7.4, added: tacrine substrate | 26 |
| O=c1c(O)c(-c2ccccc2)oc2ccccc12 | enzyme activity, inhibitor, LC-MS/MS, measured: acetaminophen | human liver microsomes | 30 min, pH 7.4, added: phenacetin | 1.37 ± 0.13 |
| CCOc1cc(-c2nncn2C)ccc1Nc1ncc2cc(C)nc(NCC(C)(C)C)c2n1 | enzyme activity, inhibitor | – | – | 10 to 50 |
